Published values from different studies.
Every numbered part comes from another study and shows a few of its results, in no order.

Set 1 — technique: protein binding microarray; molecule type: double-stranded DNA, one strand shown; sample: in vitro; concentration: not given; reference: not given; reading: higher = stronger binding; measurement: E-score
Target: Histone acetyltransferase KAT6A, both winged helices, GST fusion (KAT6A, Homo sapiens, UniProt Q92794, residues 1-181)
Setting: 8-mer, flanks averaged, mean of 2 arrays, mostly near background
Residues (chain): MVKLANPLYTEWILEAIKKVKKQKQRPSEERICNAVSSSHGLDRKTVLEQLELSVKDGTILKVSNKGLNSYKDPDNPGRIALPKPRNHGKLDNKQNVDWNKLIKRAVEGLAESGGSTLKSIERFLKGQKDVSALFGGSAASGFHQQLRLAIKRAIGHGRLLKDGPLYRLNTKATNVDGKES
ACCTGATG: -0.0833
GGAAATGA: -0.0869
ATGCGCCA: 0.147
CAAAACCA: -0.0888
CTGTTGTC: -0.0469
AGGTATAG: -0.235
GCAGACCC: 0.0119

Set 2 — technique: universal PBM; molecule type: double-stranded DNA, one strand shown; sample: in vitro; concentration: not given; reading: higher = stronger binding; measurement: E-score
Target: Sal-like protein 4, full length isoform B (SALL4, Homo sapiens, UniProt Q9UJQ4-2, residues 1-616)
Setting: 8-mer, flanks averaged, mean of replicates
Construct (chain): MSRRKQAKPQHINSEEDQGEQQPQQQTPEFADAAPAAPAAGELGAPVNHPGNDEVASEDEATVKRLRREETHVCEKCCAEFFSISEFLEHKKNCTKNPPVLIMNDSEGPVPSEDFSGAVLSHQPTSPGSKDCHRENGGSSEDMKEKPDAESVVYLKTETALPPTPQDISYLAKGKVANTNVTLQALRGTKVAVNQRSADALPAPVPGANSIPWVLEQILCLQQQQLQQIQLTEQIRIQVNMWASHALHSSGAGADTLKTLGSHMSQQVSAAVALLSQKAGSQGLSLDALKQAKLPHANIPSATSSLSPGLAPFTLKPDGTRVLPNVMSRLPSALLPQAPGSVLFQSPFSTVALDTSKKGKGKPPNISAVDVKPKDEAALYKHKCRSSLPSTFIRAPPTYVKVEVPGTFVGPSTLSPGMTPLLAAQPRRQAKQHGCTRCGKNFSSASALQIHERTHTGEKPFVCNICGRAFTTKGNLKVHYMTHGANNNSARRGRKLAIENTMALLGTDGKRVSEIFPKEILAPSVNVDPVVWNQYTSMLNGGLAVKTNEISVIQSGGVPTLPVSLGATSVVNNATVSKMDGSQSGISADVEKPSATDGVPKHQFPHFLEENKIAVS
GAACGGAC: -0.151
CCCTCAGA: -0.146
AGCCTTAA: -0.0461
ACGCTTGA: 0.0869
CAGAGCTG: -0.281
ATGAACAC: 0.18
AATATTCA: 0.399

Set 3 — technique: RNA Bind-n-Seq; molecule type: RNA; sample: in vitro; concentration: not given; setting: RNA with constant flanks, ends assumed; reference: input RNA pool; reading: higher = stronger binding; measurement: bound/input enrichment
Target: RING finger protein unkempt homolog, zinc fingers 1-6, GST-SBP tag (UNK, Homo sapiens, UniProt Q9C0B0, residues 30-357)
Chain of UniProt Q9C0B0 (30-357, looked up): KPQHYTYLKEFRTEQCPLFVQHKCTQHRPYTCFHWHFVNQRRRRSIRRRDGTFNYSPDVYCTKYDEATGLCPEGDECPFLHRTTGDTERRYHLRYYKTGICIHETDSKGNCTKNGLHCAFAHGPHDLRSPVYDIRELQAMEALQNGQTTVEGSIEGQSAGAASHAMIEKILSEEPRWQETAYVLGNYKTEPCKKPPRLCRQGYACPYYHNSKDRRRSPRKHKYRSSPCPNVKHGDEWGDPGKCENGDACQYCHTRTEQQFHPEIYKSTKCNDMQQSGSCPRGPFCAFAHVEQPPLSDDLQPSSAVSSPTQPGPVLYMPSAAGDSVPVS
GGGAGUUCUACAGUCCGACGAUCGUGACUAACUUGUUGCAGUUGCCUCAGUACUUUGAUUUGGAAAUAUAUACCACUGGACGAUCCGAAAAGCAUUUGGAUGCCUUAUUGCGACAGAUCCGGAAUAUUGUAGAGAAGCACACACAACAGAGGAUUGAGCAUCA: 0.307 ratio
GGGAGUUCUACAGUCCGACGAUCUAAAAGAAAUAGCUGUUAUUAAUGCCUUUUUGUUUUCCAUUGAGUGUACACUACUGAAUAAGUGCCGGAGUUUUAUGUUUACCAUGUGAGUCCUGCAACACUAAAGAUAUUUUGAAUAUCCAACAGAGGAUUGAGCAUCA: 0.575 ratio
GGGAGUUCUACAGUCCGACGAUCUAUUUAUAUUUAUUGACUCUUGAGUUGUUUUUGUAUAUUGGUUUUAUGAUGACGUUCGAGCCGUUCUGUAUUUGAAAGUGCCUUUGCAGCUCAGAACCACAGCAACUAUCACAAAUGACUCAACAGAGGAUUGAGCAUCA: 0.588 ratio
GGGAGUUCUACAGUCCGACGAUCAGAGGUGCAAAGAAGACUGCAGAGAUGAAUGAAAAGCUCUCCAAGAUGGGCGAAAGUUCACUCCGAAACUUUACAAUGGAUACAGAGUCAAGUGUUUAUAACUUCGAAGGAGAAGACUAUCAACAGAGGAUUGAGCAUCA: 0.254 ratio
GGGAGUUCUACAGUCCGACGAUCAAGGUGCUCUUAUUGCCUCCAGAUGUUUCUGCUUUGGCCACUCAAGCAGAGAUAGAGAGCACCGUUAAACCCAAAGUUCUUGUGAAAGAAGCUGAGAAAAAACUUCCUUCCGAUACAGAACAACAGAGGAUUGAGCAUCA: 0.191 ratio

Other studies, line by line
PhoQ, residues 284 288 289 292 302 303 SACGEM — fold induction (PhoP, residues 12 14 15 18 19 LHSVW (Escherichia coli, UniProt P23836); Sort-seq, measured: YFP reporter; E. coli; PhoQ-PhoP variant library, with: 10 µM Mg2+; reference: high Mg2+ state, higher = stronger signaling): 19.5

Excerpt of the above (set 1):
AGGTATAG: -0.235
ACCTGATG: -0.0833
CTGTTGTC: -0.0469
